Published values of several laboratories.
Lines come from different studies, so protocols differ. Numbers after ± are the reported error.

`O=C([O-])CN1CCN(CC(=O)[O-])CCN(C(CCC(=O)NCCCCCNC(=O)CCC(NC(=O)NC(CCC(=O)O)C(=O)O)C(=O)O)C(=O)O)CC1.[64Cu+2]` (centres unmarked) has an intact complex of 93.5% (radio-HPLC; PBS; 12 h, room temperature).
`Cc1cn(-c2ccc(-c3cc(C)c(N[C@@H](C)c4ccc(F)cc4)nn3)nc2O[11CH3])cn1` — result for “intact tracer fraction”: < 10% (male rhesus macaque, arterial plasma; intravenous, 2 mCi, 10 min).
For `CC1=CC(C)=[N+]2C1=C(CCCC(=O)NCCCCCC(=O)NCCCC[C@H](NC(=O)N[C@@H](CCC(=O)O)C(=O)O)C(=O)O)c1c(C)cc(C)n1[B-]2(F)[18F]` (some centres unmarked), the intact radiotracer was > 97% (HPLC; PBS; 2 h, pH 7.4).
`O=C(NCC1OC2CCC=CCCC2O1)c1ccc([18F])nc1` (centres unmarked): “intact tracer remaining” 79 ± 0.07% (mouse plasma; 2 h, 37 °C).
`N[C@H](CSC(F)(F)[18F])C(=O)O` has an intact tracer of > 95% (PBS; 2 h, pH 7.4, 37 °C).
The intact radioligand of `C[C@@H](O)[C@@H]1NC(=O)[C@H](CCCCN)NC(=O)[C@@H](Cc2ccc(NC(N)=O)cc2)NC(=O)[C@H](Cc2ccc(NC(=O)[C@@H]3CC(=O)NC(=O)N3)cc2)NC(=O)[C@H](NC(=O)[C@H](Cc2ccc(Cl)cc2)NC(=O)CN2CCN(CC(=O)O)CCN(CC(=O)O)CCN(CC(=O)O)CC2)CSSC[C@@H](C(=O)N[C@H](Cc2ccc(O)cc2)C(N)=O)NC1=O` is reported as > 95% (radio-TLC; mouse serum; 5 d, 37 °C).
`O=C([O-])CN1CCN(CC(=O)[O-])CCN(CC(=O)NCC2CCC(C(=O)NC(Cc3ccc4ccccc4c3)C(=O)NCCCCC(NC(=O)NC(CCC(=O)O)C(=O)O)C(=O)O)CC2)CCN(CC(=O)[O-])CC1.[44Sc+3]` (centres unmarked) gave an intact complex of 97.3 ± 0.1% (transchelation stability; 1 h, 37 °C, together with: EDTA 10 mM).
`O=C(NCCCN(CCCCN(CCCNC(=O)c1cccc(=O)n1[O-])C(=O)c1cccc(=O)n1[O-])C(=O)c1cccc(=O)n1[O-])c1cccc(=O)n1[O-].[89Zr+4]` has an intact complex of 97.3 ± 1.9% (radio-TLC; PBS; 5 d, pH 7.4, 37 °C, together with: Ga^3+ 10-fold excess).

Excerpt of the above:
For `CC1=CC(C)=[N+]2C1=C(CCCC(=O)NCCCCCC(=O)NCCCC[C@H](NC(=O)N[C@@H](CCC(=O)O)C(=O)O)C(=O)O)c1c(C)cc(C)n1[B-]2(F)[18F]` (some centres unmarked), the intact radiotracer was > 97% (HPLC; PBS; 2 h, pH 7.4).
